Experimental data pooled from the literature.
Each line is one published result; not all experiments were run side by side. Several values in a cell are separate wells, animals, samples, runs or records. ± marks the error that the study gave.

Under “fasting glucose change”, `CC[C@H](C)[C@H](NC(=O)[C@H](CCCN)NC(=O)[C@H](CC(=O)O)NC(=O)[C@H](CC(C)C)NC(=O)C(C)(CC(C)C)NC(=O)[C@@H](NC(=O)[C@H](CO)NC(=O)[C@H](Cc1ccc(O)cc1)NC(=O)[C@H](CC(=O)O)NC(=O)[C@H](CO)NC(=O)[C@@H](NC(=O)[C@H](Cc1ccccc1)NC(=O)[C@@H](NC(=O)CNC(=O)[C@H](CCC(=O)O)NC(=O)C(C)(C)NC(=O)[C@@H](N)Cc1ccc(O)cc1)[C@@H](C)O)[C@@H](C)CC)[C@@H](C)CC)C(=O)N[C@@H](Cc1c[nH]cn1)C(=O)N[C@@H](CCC(N)=O)C(=O)NC(C)(C)C(=O)N[C@@H](CC(=O)O)C(=O)N[C@@H](Cc1ccccc1)C(=O)N[C@H](C(=O)N[C@@H](CCC(=O)O)C(=O)N[C@@H](Cc1ccc(O)cc1)C(=O)N[C@@H](CCCCNC(=O)COCCOCCNC(=O)COCCOCCNC(=O)CC[C@H](NC(=O)CCCCCCCCCCCCCCCCCCC(=O)O)C(=O)O)C(=O)N[C@@H](CC(C)C)C(=O)N[C@@H](CCC(=O)O)C(=O)NCC(=O)NCC(=O)N1CCC[C@H]1C(=O)N[C@@H](CO)C(=O)N[C@@H](CO)C(=O)NCC(=O)N[C@@H](C)C(=O)N1CCC[C@H]1C(=O)N1CCC[C@H]1C(=O)N1CCC[C@H]1C(=O)N[C@@H](CO)C(N)=O)C(C)C` (stereo partly shown) is recorded as -1.13 mmol/L (human, type 2 diabetes; 12 mg weekly, day 29, 4 weeks dosing; reference: placebo).
With `CC(C)n1ccn2cc(C(=O)NCc3ccc(F)cc3F)c(=O)c(O)c2c1=O` the EC50 was 4.8 ± 0.2 nM (human immunodeficiency virus 1; single-round vector infection; integrase S230N).
Under “time to peak”, `CC[C@H](C)[C@H](NC(=O)[C@H](CC(C)C)NC(=O)[C@@H](NC(=O)[C@@H](NC(=O)[C@H](CC(C)C)NC(=O)[C@H](CCCCN)NC(=O)[C@@H](N)CCCCN)[C@@H](C)CC)[C@@H](C)O)C(=O)N[C@@H](Cc1ccccc1)C(=O)N[C@@H](CCCCN)C(=O)N[C@@H](CCCCN)C(=O)N[C@H](C(=O)N[C@@H](CCCNC(=N)N)C(=O)N[C@@H](CCC(=O)O)C(=O)N[C@@H](CCCCN)C(=O)N[C@@H](CCCCN)C(=O)N[C@@H](CCCCN)C(=O)N[C@@H](CCC(=O)O)C(=O)N[C@@H](CS)C(=O)N[C@@H](CC(C)C)C(=O)N[C@H](C(=O)O)C(C)C)[C@@H](C)O` is recorded as 1.9 ± 0.2 ms (TTX-sensitive sodium channel; resurgent sodium current, open-channel blocker, whole-cell patch clamp; mouse hippocampal CA3 neurons; 200 µM intracellular, 22 °C).
`CC[C@H](C)[C@H](NC(=O)[C@H](CCCCN)NC(=O)[C@H](CCCCN)NC(=O)[C@H](CC(C)C)NC(=O)[C@H](Cc1c[nH]c2ccccc12)NC(=O)CN)C(=O)NCC(=O)N[C@@H](CCCCN)C(=O)N[C@@H](CCCCN)C(=O)N[C@H](C(=O)N[C@@H](CCC(=O)O)C(=O)N[C@@H](CCCNC(=N)N)C(=O)N[C@H](C(=O)NCC(=O)N[C@@H](CCC(N)=O)C(=O)N[C@@H](Cc1c[nH]cn1)C(=O)N[C@H](C(=O)N[C@@H](CCCNC(=N)N)C(=O)N[C@@H](CC(=O)O)C(=O)N[C@@H](C)C(=O)N[C@H](C(=O)N[C@H](C(=O)N[C@@H](CCC(N)=O)C(=O)N[C@H](C(=O)N[C@H](C(=O)NCC(=O)N[C@H](C(=O)N[C@@H](C)C(=O)N[C@@H](CCC(N)=O)C(=O)N[C@@H](CCC(N)=O)C(=O)N[C@@H](C)C(=O)N[C@@H](C)C(=O)N[C@@H](CC(N)=O)C(=O)N[C@H](C(=O)N[C@@H](C)C(=O)N[C@@H](C)C(=O)N[C@H](C(=O)N[C@@H](CC(C)C)C(=O)N[C@@H](CCCCN)C(N)=O)[C@@H](C)O)C(C)C)C(C)C)[C@@H](C)CC)[C@@H](C)O)[C@@H](C)CC)[C@@H](C)O)[C@@H](C)O)C(C)C)[C@@H](C)CC` gave an MIC of ≥ 1020 µg/mL (Gram-positive bacteria, Candida albicans; reference strains, CAMHB).
`COCCCCCCn1ccn2cc(C(=O)NCc3ccc(F)cc3F)c(=O)c(O)c2c1=O` has an EC50 of 5 ± 0.2 nM (human immunodeficiency virus 1; single-round vector infection; integrase R263K).
`COc1ccc(-c2cnnn2-c2cc(OC)c(OC)c(OC)c2)cc1N` has an EC50 of 11.2 ± 0.76 nM (MDA-MB-231; cytotoxicity, nuclei counting; 24 h).
With `CC[C@H](C)[C@@H]1NC(=O)[C@H](CC(=O)O)NC(=O)[C@H]([C@@H](C)O)NC(=O)[C@@H]2CSSC[C@@H]3NC(=O)[C@H](CC(C)C)NC(=O)[C@H](CC(N)=O)NC(=O)[C@H](CC(C)C)NC(=O)[C@H](CCCNC(=N)N)NC(=O)[C@H](Cc4ccc(O)cc4)NC(=O)[C@H](CC(N)=O)NC(=O)[C@H](CCSC)NC(=O)[C@H](CO)NC(=O)[C@H]([C@@H](C)O)NC(=O)[C@H](CCCNC(=N)N)NC(=O)[C@H](CSSC[C@H](NC(=O)[C@H]([C@@H](C)O)NC(=O)[C@H](CCCCN)NC(=O)[C@H](CCCNC(=N)N)NC3=O)C(=O)NCC(=O)N[C@@H](CO)C(=O)N[C@H](C(=O)O)CSSC[C@H](NC(=O)[C@@H](NC(=O)[C@@H](N)CCCNC(=N)N)[C@@H](C)O)C(=O)N[C@@H](CCCCN)C(=O)N[C@@H](CC(=O)O)C(=O)N[C@@H](CC(C)C)C(=O)N[C@@H]([C@@H](C)CC)C(=O)N3CCC[C@H]3C(=O)N[C@@H](C(C)C)C(=O)N[C@@H](CO)C(=O)N[C@@H](CCC(=O)O)C(=O)N2)NC(=O)[C@H](CCCNC(=N)N)NC1=O` the koff was 0.1 ± 0.02 s⁻¹ (KcsA-Shaker channel; two-electrode voltage clamp; Xenopus oocytes; 0 mV).
For `Cc1ccc(NS(=O)(=O)c2c(C(=O)N3CCCCCC3)c(C)n(C)c2C)c(Cl)c1`, the relative infection was 74% and 84% (Monkeypox virus; Vero C1008, wild type; 0.12 µM, 72 h; reference: untreated).
For `COCC(C)N1CCn2cc(C(=O)NCc3ccc(F)cc3F)c(=O)c(O)c2C1=O` (stereo not shown), the EC50 was 22.1 ± 3.7 nM (human immunodeficiency virus 1; single-round vector infection; integrase G118R).
With `Nc1ncnc2c1ncn2C1CCC(OC(C(=O)O)P(=O)(O)O)C1` (racemic) the fold resistance was 2.8 fold (HIV-1 reverse transcriptase M184I; enzyme activity, inhibitor; added: poly(rU)·oligo(dA), [3H]dATP; reference: mutant over wild type).
For `O=C(NCc1ccc(F)cc1F)c1cn2ccn(CCCCCCO)c(=O)c2c(O)c1=O`, the EC50 was 19.7 ± 1.7 nM (human immunodeficiency virus 1; single-round vector infection; integrase N155H).
`CC1(C)SSC(C)(C)[C@@H](NC(=O)[C@@H](N)Cc2ccc(O)cc2)C(=O)NCC(=O)N[C@@H](Cc2ccccc2)C(=O)N[C@H]1C(=O)O` gave an IC50 of 99200 ± 32500 nM ([3H]deltorphin II uptake, inhibitor; rabbit, cells; 15 min, NaCl-containing medium).
The EC50 of `Cc1cc(/C=C/C#N)cc(C)c1-n1cnc2cnc(Nc3ccc(C#N)cc3)nc21` is reported as 0.4 ± 0.2 nM (HIV-1; viral replication, single-round infection; RT mutant V106A/L234I).
With `COCCCCCCN1CCn2cc(C(=O)NCc3ccc(F)cc3F)c(=O)c(O)c2C1=O` the EC50 was 9.4 ± 1.4 nM (human immunodeficiency virus 1; single-round vector infection; integrase R263K).
With `Cc1cc(/C=C/C#N)cc(C)c1Nc1nc(Nc2ccc(C#N)cc2)ncc1N` the EC50 was 0.1 ± 0.03 nM (HIV-1; viral replication, single-round infection; RT mutant L100I).
For `CCCCCCCCCCCCCCCCCC(=O)N[C@@H](CCC(=O)NCCCC[C@H](NC(=O)[C@H](CCC(N)=O)NC(=O)[C@H](CCCCN)NC(=O)[C@H](CO)NC(=O)[C@H](CC(C)C)NC(=O)[C@H](CC(=O)O)NC(=O)[C@H](CO)NC(=O)[C@@H](NC(=O)[C@H](Cc1ccccc1)NC(=O)[C@@H](NC(=O)CNC(=O)[C@H](CCC(N)=O)NC(=O)[C@@H](CO)NC(=O)[C@@H](N)Cc1c[nH]cn1)[C@@H](C)O)[C@@H](C)O)C(=O)N[C@@H](CC(=O)O)C(=O)N[C@@H](CCC(=O)O)C(=O)N[C@@H](CCC(N)=O)C(=O)N[C@@H](CC(C)C)C(=O)N[C@@H](C)C(=O)N[C@@H](CCCCN)C(=O)N[C@@H](CC(=O)O)C(=O)N[C@@H](Cc1ccccc1)C(=O)N[C@H](C(=O)N[C@@H](CCC(=O)O)C(=O)N[C@@H](Cc1c[nH]c2ccccc12)C(=O)N[C@@H](CC(C)C)C(=O)N[C@@H](CCCCN)C(=O)N[C@@H](C)C(=O)NCC(=O)NCC(=O)N1CCC[C@H]1C(=O)N[C@@H](CO)C(=O)N[C@@H](CO)C(=O)NCC(=O)N[C@@H](C)C(=O)N1CCC[C@H]1C(=O)N1CCC[C@H]1C(=O)N1CCC[C@H]1C(=O)N[C@@H](CO)C(N)=O)[C@@H](C)CC)C(=O)O`, the HbA1c was 6.1 ± 0.4% (cynomolgus monkey, obese diabetic; dose not given, day 43, chronic multiple dosing).

Repeated from above:
With `CC[C@H](C)[C@@H]1NC(=O)[C@H](CC(=O)O)NC(=O)[C@H]([C@@H](C)O)NC(=O)[C@@H]2CSSC[C@@H]3NC(=O)[C@H](CC(C)C)NC(=O)[C@H](CC(N)=O)NC(=O)[C@H](CC(C)C)NC(=O)[C@H](CCCNC(=N)N)NC(=O)[C@H](Cc4ccc(O)cc4)NC(=O)[C@H](CC(N)=O)NC(=O)[C@H](CCSC)NC(=O)[C@H](CO)NC(=O)[C@H]([C@@H](C)O)NC(=O)[C@H](CCCNC(=N)N)NC(=O)[C@H](CSSC[C@H](NC(=O)[C@H]([C@@H](C)O)NC(=O)[C@H](CCCCN)NC(=O)[C@H](CCCNC(=N)N)NC3=O)C(=O)NCC(=O)N[C@@H](CO)C(=O)N[C@H](C(=O)O)CSSC[C@H](NC(=O)[C@@H](NC(=O)[C@@H](N)CCCNC(=N)N)[C@@H](C)O)C(=O)N[C@@H](CCCCN)C(=O)N[C@@H](CC(=O)O)C(=O)N[C@@H](CC(C)C)C(=O)N[C@@H]([C@@H](C)CC)C(=O)N3CCC[C@H]3C(=O)N[C@@H](C(C)C)C(=O)N[C@@H](CO)C(=O)N[C@@H](CCC(=O)O)C(=O)N2)NC(=O)[C@H](CCCNC(=N)N)NC1=O` the koff was 0.1 ± 0.02 s⁻¹ (KcsA-Shaker channel; two-electrode voltage clamp; Xenopus oocytes; 0 mV).
